Measurements from different studies.
Every numbered part comes from another study and shows a few of its results, in no order.
UniProt P08908, sequence (whole entry, looked up): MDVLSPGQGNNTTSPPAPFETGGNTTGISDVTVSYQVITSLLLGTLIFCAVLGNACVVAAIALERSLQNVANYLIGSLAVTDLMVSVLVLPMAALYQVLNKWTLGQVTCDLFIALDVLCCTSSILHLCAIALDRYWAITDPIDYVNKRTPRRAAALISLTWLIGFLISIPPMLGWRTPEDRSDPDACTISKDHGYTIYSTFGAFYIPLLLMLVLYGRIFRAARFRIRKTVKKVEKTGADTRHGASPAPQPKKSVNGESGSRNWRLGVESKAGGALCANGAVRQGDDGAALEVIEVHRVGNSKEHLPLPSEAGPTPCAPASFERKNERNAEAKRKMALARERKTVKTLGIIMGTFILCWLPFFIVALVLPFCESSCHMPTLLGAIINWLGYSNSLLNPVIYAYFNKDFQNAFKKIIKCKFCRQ
UniProt P48729, sequence (whole entry, looked up): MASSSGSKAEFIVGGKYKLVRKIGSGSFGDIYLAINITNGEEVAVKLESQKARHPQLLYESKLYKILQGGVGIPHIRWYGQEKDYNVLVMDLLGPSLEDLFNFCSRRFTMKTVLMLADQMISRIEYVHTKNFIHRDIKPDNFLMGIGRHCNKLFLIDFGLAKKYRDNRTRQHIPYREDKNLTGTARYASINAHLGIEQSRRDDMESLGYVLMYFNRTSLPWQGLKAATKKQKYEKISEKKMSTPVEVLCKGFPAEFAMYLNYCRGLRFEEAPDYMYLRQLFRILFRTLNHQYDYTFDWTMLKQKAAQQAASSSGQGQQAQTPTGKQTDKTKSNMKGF
UniProt P52564, sequence (whole entry, looked up): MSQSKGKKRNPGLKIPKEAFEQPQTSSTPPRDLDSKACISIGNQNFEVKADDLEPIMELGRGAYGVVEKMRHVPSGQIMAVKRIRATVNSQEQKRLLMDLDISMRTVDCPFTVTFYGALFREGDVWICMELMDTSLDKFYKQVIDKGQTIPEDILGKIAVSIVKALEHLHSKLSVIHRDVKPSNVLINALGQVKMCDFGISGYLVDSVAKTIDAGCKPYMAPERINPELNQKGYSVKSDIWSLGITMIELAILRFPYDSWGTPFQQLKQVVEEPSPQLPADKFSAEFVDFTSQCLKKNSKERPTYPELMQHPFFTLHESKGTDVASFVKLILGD
UniProt Q9NWZ3, sequence (whole entry, looked up): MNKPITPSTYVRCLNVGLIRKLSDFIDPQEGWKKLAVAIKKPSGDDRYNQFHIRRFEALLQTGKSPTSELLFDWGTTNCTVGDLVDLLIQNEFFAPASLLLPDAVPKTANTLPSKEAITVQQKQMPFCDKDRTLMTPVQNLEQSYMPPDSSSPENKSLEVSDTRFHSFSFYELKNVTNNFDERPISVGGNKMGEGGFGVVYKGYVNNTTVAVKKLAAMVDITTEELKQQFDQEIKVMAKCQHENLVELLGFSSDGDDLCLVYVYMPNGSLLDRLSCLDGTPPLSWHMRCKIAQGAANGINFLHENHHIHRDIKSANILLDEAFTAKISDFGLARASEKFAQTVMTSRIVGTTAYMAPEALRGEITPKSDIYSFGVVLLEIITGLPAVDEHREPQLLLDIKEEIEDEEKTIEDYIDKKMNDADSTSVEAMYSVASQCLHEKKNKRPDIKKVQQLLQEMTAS
UniProt P35372, sequence (whole entry, looked up): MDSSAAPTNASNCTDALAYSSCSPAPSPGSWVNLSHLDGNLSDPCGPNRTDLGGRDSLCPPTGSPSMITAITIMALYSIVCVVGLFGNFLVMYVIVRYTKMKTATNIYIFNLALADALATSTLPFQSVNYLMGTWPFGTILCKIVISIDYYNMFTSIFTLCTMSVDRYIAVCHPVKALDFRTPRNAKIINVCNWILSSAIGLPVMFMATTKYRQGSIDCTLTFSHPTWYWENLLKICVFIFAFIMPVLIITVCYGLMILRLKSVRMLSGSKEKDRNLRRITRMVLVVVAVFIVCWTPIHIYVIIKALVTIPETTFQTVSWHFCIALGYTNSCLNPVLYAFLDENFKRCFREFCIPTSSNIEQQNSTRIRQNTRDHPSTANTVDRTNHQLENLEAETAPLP

Set 1 — observed: binding; technique: radioligand binding; tested at: 10 µM
SMILES: CNC(=O)c1cc(C(=O)N[C@H]2[C@@H]3COC[C@@H]32)cc2c1O[C@@H](CF)[C@@H]2c1ccccc1
target	inhibition [%]
CHRM3 (Homo sapiens, UniProt P20309)	12.6
OPRM1 (Homo sapiens, UniProt P35372)	4.77
DRD5 (Homo sapiens, UniProt P21918)	-7.16
SLC6A4 (Homo sapiens, UniProt P31645)	-14.2
SLC6A2 (Homo sapiens, UniProt P23975)	-37.3
SLC6A3 (Homo sapiens, UniProt Q01959)	-18.8
OPRK1 (Homo sapiens, UniProt P41145)	41.1
HTR1A (Homo sapiens, UniProt P08908)	14.9

Set 2 — cell line: A-375; tested at: 100 µM; time: 18 h
SMILES	viability
O=C1CC[C@@]2(O)[C@H]3Cc4ccc(O)c5c4[C@@]2(CCN3CC2CC2)[C@H]1O5	103%
CC(C)=CCOc1c2occc2cc2ccc(=O)oc12	80.7%
C#C[C@]1(O)C=C[C@H]2[C@@H]3CCC4=CC(=O)CC[C@@H]4[C@H]3CC[C@@]21CC	62.7%
CC(CCc1ccccc1)NC(C)C(O)c1ccc(O)cc1 (stereo not shown)	97.3%
CCN(CC)CCOC(=O)C(O)(c1ccccc1)c1ccccc1	98.3%

Set 3 — observed: enzyme activity; action: inhibitor; tested at: 0.5 µM
Structure (SMILES): COc1ccc2c(c[n+](C)c3c4cc5c(cc4ccc23)OCO5)c1OC
target	assay	how to read	remaining activity [%]
EPHA5 (Homo sapiens, UniProt P54756)		relative to: control	94.6
AKT3 (Homo sapiens, UniProt Q9Y243)		relative to: control	103
PRKG1 (Homo sapiens, UniProt Q13976)		relative to: control	98.8
LYN (Homo sapiens, UniProt P07948)		relative to: control	100
STK33 (Homo sapiens, UniProt Q9BYT3)	radiometric		102
CHEK1 (Homo sapiens, UniProt O14757)		relative to: control	94.4
LRRK2 (Homo sapiens, UniProt Q5S007)		relative to: control	104
NEK4 (Homo sapiens, UniProt P51957)		relative to: control	96.6
WNK2 (Homo sapiens, UniProt Q9Y3S1)		relative to: control	98.5
CSNK1A1 (Homo sapiens, UniProt P48729)		relative to: control	103
Cyclin-dependent kinase 9, with cyclin T1 (CDK9, Homo sapiens, UniProt P50750)		relative to: control	96.4
MAP2K6 (Homo sapiens, UniProt P52564)		relative to: control	95
CSNK2A1 (Homo sapiens, UniProt P68400)		relative to: control	83.3
KIT (Homo sapiens, UniProt P10721)		relative to: control	68.8
MAPK12 (Homo sapiens, UniProt P53778)		relative to: control	100
IRAK4 (Homo sapiens, UniProt Q9NWZ3)		relative to: control	116
BTK (Homo sapiens, UniProt Q06187)		relative to: control	98.6
PRKCI (Homo sapiens, UniProt P41743)		relative to: control	98.3
MAP4K2 (Homo sapiens, UniProt Q12851)		relative to: control	96.1
MKNK2 (Homo sapiens, UniProt Q9HBH9)		relative to: control	107
PRKCD (Homo sapiens, UniProt Q05655)		relative to: control	96.8
PLK2 (Homo sapiens, UniProt Q9NYY3)		relative to: control	97.6
MAP3K10 (Homo sapiens, UniProt Q02779)		relative to: control	91.7

Set 4 — observed: enzyme activity; action: inhibitor; tested at: 77 µM; relative to: untreated
Target: DNA polymerase theta, ATPase domain (POLQ, Homo sapiens, UniProt O75417)
UniProt O75417, sequence (whole entry, unmodified, looked up): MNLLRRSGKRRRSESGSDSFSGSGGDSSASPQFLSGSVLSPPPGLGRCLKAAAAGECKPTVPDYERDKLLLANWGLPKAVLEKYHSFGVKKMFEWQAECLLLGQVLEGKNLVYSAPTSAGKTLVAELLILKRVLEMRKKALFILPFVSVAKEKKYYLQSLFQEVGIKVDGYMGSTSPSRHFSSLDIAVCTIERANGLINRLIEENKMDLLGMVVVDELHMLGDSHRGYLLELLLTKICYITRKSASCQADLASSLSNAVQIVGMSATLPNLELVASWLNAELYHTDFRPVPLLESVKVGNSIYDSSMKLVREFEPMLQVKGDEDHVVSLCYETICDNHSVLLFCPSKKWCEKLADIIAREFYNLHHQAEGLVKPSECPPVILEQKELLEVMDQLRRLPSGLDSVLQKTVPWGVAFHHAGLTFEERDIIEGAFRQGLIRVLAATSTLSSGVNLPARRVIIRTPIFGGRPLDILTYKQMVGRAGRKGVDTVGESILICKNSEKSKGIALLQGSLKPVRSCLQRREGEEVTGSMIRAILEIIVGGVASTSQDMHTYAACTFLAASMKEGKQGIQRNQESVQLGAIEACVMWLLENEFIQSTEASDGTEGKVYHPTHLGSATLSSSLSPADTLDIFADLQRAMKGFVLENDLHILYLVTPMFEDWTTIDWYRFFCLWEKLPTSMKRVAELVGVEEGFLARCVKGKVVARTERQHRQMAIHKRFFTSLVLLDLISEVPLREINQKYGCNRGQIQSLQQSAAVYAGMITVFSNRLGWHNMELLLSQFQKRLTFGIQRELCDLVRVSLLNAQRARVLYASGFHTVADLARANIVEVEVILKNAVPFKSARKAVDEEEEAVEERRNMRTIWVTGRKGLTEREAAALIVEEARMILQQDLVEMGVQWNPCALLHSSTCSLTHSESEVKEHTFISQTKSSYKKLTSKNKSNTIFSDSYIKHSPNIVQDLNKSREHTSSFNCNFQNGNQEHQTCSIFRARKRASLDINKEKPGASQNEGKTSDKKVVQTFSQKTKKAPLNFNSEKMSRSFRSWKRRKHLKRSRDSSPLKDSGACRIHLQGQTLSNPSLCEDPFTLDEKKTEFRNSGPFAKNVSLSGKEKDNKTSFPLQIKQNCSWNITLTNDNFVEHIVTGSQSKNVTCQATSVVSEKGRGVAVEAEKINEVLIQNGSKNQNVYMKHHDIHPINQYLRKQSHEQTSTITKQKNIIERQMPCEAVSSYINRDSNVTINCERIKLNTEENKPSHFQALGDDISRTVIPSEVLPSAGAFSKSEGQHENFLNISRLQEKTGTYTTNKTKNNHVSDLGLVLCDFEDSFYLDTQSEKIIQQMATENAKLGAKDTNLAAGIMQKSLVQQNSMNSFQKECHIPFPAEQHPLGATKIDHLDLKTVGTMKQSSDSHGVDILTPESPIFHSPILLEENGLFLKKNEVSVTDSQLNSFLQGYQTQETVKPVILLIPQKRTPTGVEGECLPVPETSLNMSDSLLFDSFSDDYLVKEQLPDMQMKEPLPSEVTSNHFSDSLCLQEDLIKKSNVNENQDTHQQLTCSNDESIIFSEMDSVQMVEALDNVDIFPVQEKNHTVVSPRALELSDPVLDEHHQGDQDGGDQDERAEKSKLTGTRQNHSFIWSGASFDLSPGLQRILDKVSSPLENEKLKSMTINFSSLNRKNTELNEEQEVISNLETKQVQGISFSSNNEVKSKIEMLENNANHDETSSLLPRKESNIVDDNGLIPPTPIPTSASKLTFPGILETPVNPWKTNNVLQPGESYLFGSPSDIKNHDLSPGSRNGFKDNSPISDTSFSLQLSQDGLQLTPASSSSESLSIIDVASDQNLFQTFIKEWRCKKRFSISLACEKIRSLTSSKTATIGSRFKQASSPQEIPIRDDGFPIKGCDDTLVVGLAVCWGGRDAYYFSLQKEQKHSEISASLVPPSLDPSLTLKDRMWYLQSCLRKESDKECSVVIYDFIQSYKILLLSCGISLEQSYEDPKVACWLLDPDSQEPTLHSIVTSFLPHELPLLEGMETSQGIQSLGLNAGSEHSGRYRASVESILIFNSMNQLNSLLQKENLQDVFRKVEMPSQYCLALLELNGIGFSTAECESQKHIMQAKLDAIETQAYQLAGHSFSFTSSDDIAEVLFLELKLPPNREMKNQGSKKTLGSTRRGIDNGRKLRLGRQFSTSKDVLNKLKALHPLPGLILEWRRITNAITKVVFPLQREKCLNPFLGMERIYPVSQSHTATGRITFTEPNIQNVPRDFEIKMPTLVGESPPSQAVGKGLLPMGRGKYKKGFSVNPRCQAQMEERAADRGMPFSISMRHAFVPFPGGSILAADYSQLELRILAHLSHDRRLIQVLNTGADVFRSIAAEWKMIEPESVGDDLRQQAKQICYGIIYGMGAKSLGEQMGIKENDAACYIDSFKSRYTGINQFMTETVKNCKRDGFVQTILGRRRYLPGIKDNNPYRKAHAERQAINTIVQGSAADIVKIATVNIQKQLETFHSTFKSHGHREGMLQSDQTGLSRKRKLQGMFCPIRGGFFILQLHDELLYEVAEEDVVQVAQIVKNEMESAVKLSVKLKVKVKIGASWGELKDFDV
Compound	remaining activity [%]
C=C[C@]12CN(C)[C@@H]3[C@H]4CO[C@H](C[C@H]41)[C@]1(C(=O)Nc4ccccc41)[C@@H]32	99.1
CC[C@H]1CN2CC[C@H]1C[C@H]2[C@H](O)c1ccnc2ccc(OC)cc12	94.2
C#CCN[C@H](C)Cc1ccccc1	98.1
COc1cc2c3cc1Oc1cc(ccc1O)C[C@@H]1c4c(cc(OC)c(O)c4Oc4cccc(c4)C[C@@H]3N(C)CC2)CC[N+]1(C)C	98.3
CCC(COC(=O)c1cc(OC)c(OC)c(OC)c1)(c1ccccc1)N(C)C (stereo not shown)	95.1
C=CCN1CC[C@]23CCCC[C@H]2[C@H]1Cc1ccc(O)cc13	101

Set 5 — observed: enzyme activity; action: inhibitor; tested at: 10 µM
Target: Calcium/calmodulin-dependent protein kinase type II subunit alpha (CAMK2A, Homo sapiens, UniProt Q9UQM7)
UniProt Q9UQM7, sequence (whole entry, looked up): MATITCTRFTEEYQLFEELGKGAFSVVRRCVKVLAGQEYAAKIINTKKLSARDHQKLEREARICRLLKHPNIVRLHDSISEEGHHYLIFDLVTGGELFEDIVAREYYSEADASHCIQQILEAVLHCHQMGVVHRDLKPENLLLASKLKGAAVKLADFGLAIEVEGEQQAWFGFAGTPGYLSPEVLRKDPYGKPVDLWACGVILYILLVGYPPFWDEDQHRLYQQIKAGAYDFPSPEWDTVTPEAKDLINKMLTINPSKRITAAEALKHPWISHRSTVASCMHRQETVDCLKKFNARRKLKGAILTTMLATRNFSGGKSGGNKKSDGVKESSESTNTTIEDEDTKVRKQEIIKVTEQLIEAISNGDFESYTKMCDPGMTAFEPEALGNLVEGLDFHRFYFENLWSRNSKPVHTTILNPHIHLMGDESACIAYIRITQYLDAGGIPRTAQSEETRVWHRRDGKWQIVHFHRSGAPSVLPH
SMILES	inhibition
CCN1C[C@]2(COC)[C@H](O)C[C@H](OC)[C@]34C1[C@H]([C@H](OC)[C@H]23)[C@@]1(OC(C)=O)C[C@H](OC)[C@@]2(O)C[C@@H]4[C@@H]1[C@H]2OC(=O)c1ccc(OC)cc1	-5%
COc1cc2ccc(=O)oc2c2ccoc12	-12%
O=c1[nH]c2ccccc2o1	-3%
O=C1NCN(c2ccccc2)C12CCN(CCCOc1ccc(F)cc1)CC2	4%

Some of these lines once more (set 3):
target	assay	how to read	remaining activity [%]
MAPK12 (Homo sapiens, UniProt P53778)		relative to: control	100
IRAK4 (Homo sapiens, UniProt Q9NWZ3)		relative to: control	116
BTK (Homo sapiens, UniProt Q06187)		relative to: control	98.6
PRKCI (Homo sapiens, UniProt P41743)		relative to: control	98.3
MAP4K2 (Homo sapiens, UniProt Q12851)		relative to: control	96.1
MKNK2 (Homo sapiens, UniProt Q9HBH9)		relative to: control	107
PRKCD (Homo sapiens, UniProt Q05655)		relative to: control	96.8
